Results gathered from unrelated publications.
Numbered parts are unrelated; each lists some results of a single study. Positions count from the first letter of the parent shown.

Block 1
Target: RNA binding protein fox-1 homolog 2, RRM domain, GST-SBP tag (RBFOX2, Homo sapiens, UniProt O43251-10, residues 100-194)
Technique: RNA Bind-n-Seq
Molecule type: RNA
Medium: in vitro
Concentration: 365 nM
Notes: natural RNA segment, single round, ends assumed
Reference: no-protein control
Reading: higher = stronger binding
All sequences stand within: GGGAGUUCUACAGUCCGACGAUC … UGGAAUUCUCGGGUGCCAA
Construct (chain): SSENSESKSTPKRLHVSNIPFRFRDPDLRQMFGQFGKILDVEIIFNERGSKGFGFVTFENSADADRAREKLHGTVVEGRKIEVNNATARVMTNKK
| Oligonucleotide | RBNS enrichment (R) |
| --- | --- |
| CUGAAUUCAGUGAUAUCCCUAUACACUGCCAUUUAGUGGAUAGGUUAUUGUACUUCCAUUCAUACUCUGGGCACUUGUGUUGUAUUGUUCUGUUACAUACUUUUUUUAAC | 0.323 |
| CCUUGACAUAGUGAAGGACACUAUAAUGUAUGAGUUGUUGUCAGUUUUUAUUUAUUUUUUGUUAGGAAUUGGCCAAGAUCGCUAUGGAAAAAAUAAAAGAACAAACACAU | 0.921 |
| AGUAGGGGGACCAUUGGGGACAUCACAGAAGCCACUGUCCAGAUGGGGCUCAGGCCAGUGGGUGUGGGAUGGGCCAUCUGCAGGAUAGACCUGGCAAGUCCCCUCUGAUA | 1.21 |
| UUUGGAGAGCUGUUUUAUCUCCAAUGGCUGUGACUCAGUGCAAGGAUUCCACUCAGAACCUCUUUCUAAAGUUUUUGCCUGAUGUGUCUUCACUGGAUUUUGGGGUUCCC | 0.768 |
| CAUGCCUGCCACCUAACCACCUACCUGCCUUAGGCCAUAGCCUGGCCUGUGCCCCUAAACACUACAUUAGACAGUGACACCCAAAGGUUUUCUUAGGAGGGUGUCUGGCA | 0.415 |
| UGACCAGUUAUAAGACUCGCUUUUCAGUCAUGGAUCCUGCAGAAAUCUGAGACCCACCCAUAUCCUAGCUUUUAACUGUCUUCGCUCCACCCUCAAAGAUGCUACUGGGC | 0.481 |
| CUCUCCCCCUGCUGUCUGCAGCCCCUCCCCGGGGAGUUGGUGCUUUCUUUUCCUUUUUUUUUUUUUUCCAGGGGGAGGGAGGAGAGGAAGGAGGGGGAUCAGAGCUGUCC | 0.905 |
| AUUUGAAAUGACCCCUCCUCGCUGUGAGAGUCCAGAGUCUCCUGAAGUUUGUCAAUGACUGAAAUGCGAGCAGUGUCACCCAGAGUUGUGGUCAGCCUUACCCCUUCUCC | 0.459 |
| CUUUUUGCUGUACAAAUCUGUUUAAAAAAAAAAAAAAGUAACUCAUUGAAUUAACUUGCAGUGGUGUGUUUGAUUCUUUUUUAGACUGGCUUCAGCAUUGUGCAGUUUAA | 0.654 |
| UAGAUAUGAGUUGAGCACCCUGCCUUUCUUCCUAUCACCCCGCUUCUGCUGAUAGUCCGUGCUACAUUAAGGGACUGAGCAGAGAACACUCAGUCAAGUCCUGAUCCAUU | 0.981 |
| AGCUGUAGGACCUGCAUGGGAAAUGGUCUGUGUGUUUCAGGUUAACAAAUACUGAAAAUCCCAAGGAACCUGGGAGAAUCUGAAAAUGAACUCCAGUCUUCAGCUCGAAG | 7.42 |
| UUAUCAAAUCCUUCUCUCCCAAGCCAUUUAAAAACGUUUUUUAAGUGAAAAGUUUGUAUUCUGCCUCUAAAGUUCCUCAACAAAUACUCGAGUUACACAUAUGCAUAUGU | 2.09 |

Block 2
Target: RING finger protein unkempt homolog, zinc fingers 1-6, GST-SBP tag (UNK, Homo sapiens, UniProt Q9C0B0, residues 30-357)
Technique: RNA Bind-n-Seq
Molecule type: RNA
Medium: in vitro
Concentration: not given
Notes: RNA with constant flanks, human and mouse sites, ends assumed
Reference: input RNA pool
Reading: higher = stronger binding
All sequences stand within: GGGAGUUCUACAGUCCGACGAUC … CAACAGAGGAUUGAGCAUCA
Construct (chain): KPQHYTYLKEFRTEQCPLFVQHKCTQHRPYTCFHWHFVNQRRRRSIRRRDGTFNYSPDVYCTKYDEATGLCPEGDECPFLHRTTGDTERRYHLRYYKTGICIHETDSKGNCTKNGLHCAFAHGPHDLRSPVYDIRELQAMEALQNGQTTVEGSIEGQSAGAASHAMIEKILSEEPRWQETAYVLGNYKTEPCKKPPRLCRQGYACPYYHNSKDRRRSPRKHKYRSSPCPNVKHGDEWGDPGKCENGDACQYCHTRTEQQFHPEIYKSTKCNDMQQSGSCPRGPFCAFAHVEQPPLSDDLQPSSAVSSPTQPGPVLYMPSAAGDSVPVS
| Oligonucleotide | bound/input enrichment |
| --- | --- |
| GGCUCCACAGUUGGGAGGUAGCUUUGCAGUUUGGGGAGGACUGUUUUCCACGAUUGACUGCAGUAUGGUUCAAAUACGAGGCAAAGAAGACCCCUGGAACUCCAUCACUAGCGGUGCCUU | 0.504 ratio |
| UUGAACCAGGCUGCUGGAGCUUGCUCCCUCCCGCCCUCUCUCUUUUUUUUCCACGGGGCUGUUUUUUUAAUUUGGCUGCAAUUGCAUGAAAUCCCAAUGGUGUAGACCAGUGGCGAUGGA | 0.398 ratio |
| CGAGAAGUAGGAAUCCCUCCUGAGCAGUCCUUGGAAACUGCGAAAGCAGUGAAGGAACGCUACAGUUAUGUCUGCCCAGAUUUAGUAAAAGAGUUUAACAAGUAUGACACCGAUGGGUCA | 7.22 ratio |
| UUGCAGGGAAUGGGCUACAUACCAUCUGCCAGCAUGACCCGGCUCGCCCGAUCACGAACCCACUCCACCUCAAGUAGCAUUGGCUCUGGAGAAAGUCCCUUUAGCAGGUCUGUGACCAGC | 0.127 ratio |
| UCUUAAUCAUAGUCUACCAUCAAAUAUUUUAGGAGUAUCUUUAAUGUUUAGAUAGUAUAUUAGCAGCAUGCAAUAAUUACAUCAUAAGUUCUCAAGCAGAGGCAGUCUAUUGCAAGGACC | 1.8 ratio |
| UAUAUGACUGACGGGAUGCUACUUCGUGAAGCCAUGAACGAUCCCCUUCUGGAGCGUUAUGGUGUGAUAAUUCUUGAUGAGGCCCAUGAAAGAACAUUGGCUACAGAUAUUCUCAUGGGU | 0.0787 ratio |
| UAUAGUGGGGUUGGUAAUUCAUCAGUUUCUGGCCAUGGUAUUCUCCCAAGCUAUCAGGAACUAGUGGAAGACCGUUUCAGGAAACCUCAUGCUUUUGCUGUGCCUGGACAGUCUUAUCAG | 0.428 ratio |
| CGUGCCCCAGCUGCCCGACGCAGCCCUGGGCCAGGCCCCAGCCCAACACCCCGUAGUCCAAAACAUGCAAGGCCGGCAGAGCUGAAGCUUGCACCUUUGACAAGGGUACUCACACCACCC | 0.339 ratio |
| GUCCUUAGGCUUACAAUGUGCACUGAAUCGUUUCAUGUAAGAAUCCAAAGUGGACACCAUUAACAGGUCUUUGAAAUAUGCAUGUACUUUAUAUUUUCUAUAUUUGUAACUUUGCAUGUU | 0.492 ratio |
| UUCAUUUUUUUUUUUAAGUGGUUCUCUGCCACAAGAAAGCUUGACACAUUCUUACCAAGAACUAGCCAGGCUUCAUACUUUCUGCUGUGUUCCCGAUAUCUAUGUACUGUGAAGAACCGU | 1.2 ratio |
| UAUGGUGCACUUUUUUCGCUAUUUAAGUUGGAUAUUUCUCUACAUUCCUGAAACAAUUUUUAGGUUUUUUUUGUACUAGAAAAUGCAGGCAGUGUUUUCACAAAAGUAACUGUACAGUGA | 1.22 ratio |

Block 3
Target: CCNB2, cyclin fold, Cln2 fusion (human)
Technique: yeast growth competition, sequencing
Medium: yeast
Notes: weak parent motif
Reference: not given
Reading: higher = stronger binding
Parent: SCAPER docking peptide (human); SNARRSLNFGGST
| Variant | normalised enrichment score |
| --- | --- |
| CNARRSLNFGGST [S1C] | 0.398 |
| SNARASLNFGGST [R5A] | -0.29 |
| SNAHRSLNFGGST [R4H] | -0.106 |
| SNARRSLNFHGST [G10H] | 0.346 |
| SNARFSLNFGGST [R5F] | 0.46 |
| SNARRSLNFGFST [G11F] | 0.207 |
| SNNRRSLNFGGST [A3N] | 0.783 |
| SNARRSLNFGGAT [S12A] | 0.654 |
| SIARRSLNFGGST [N2I] | 0.225 |
| SNARRSLNFEGST [G10E] | -0.00737 |
| SNARRSLNFGGIT [S12I] | 0.166 |
| SNARTSLNFGGST [R5T] | 0.0263 |
| SNARRSMNFGGST [L7M] | 0.339 |
| SNARRSLNFLGST [G10L] | -0.021 |
| SNAERSLNFGGST [R4E] | -0.609 |
| SNARRFLNFGGST [S6F] | 0.527 |
| SNARRSLPFGGST [N8P] | 0.306 |
| SCARRSLNFGGST [N2C] | -0.264 |

Block 4
Target: Histone acetyltransferase KAT6A, winged helix 2, GST fusion (KAT6A, Homo sapiens, UniProt Q92794, residues 85-181)
Technique: protein binding microarray
Molecule type: double-stranded DNA, one strand shown
Medium: in vitro
Concentration: not given
Notes: 8-mer, flanks averaged, mean of 2 arrays, mostly near background
Reference: not given
Reading: higher = stronger binding
Residues (chain): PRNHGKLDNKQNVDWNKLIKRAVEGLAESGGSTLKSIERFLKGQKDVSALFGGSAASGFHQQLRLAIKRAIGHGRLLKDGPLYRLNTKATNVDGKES
| Oligonucleotide | E-score |
| --- | --- |
| AAGATCGC | 0.0858 |
| ACATTGTC | -0.0528 |
| CCAAAGCA | 0.149 |
| CAAGTTAA | -0.0247 |
| TGTGGTAA | 0.031 |
| GCTACGCC | 0.0717 |
| AACGAGTA | -0.13 |
| ATAGTGAG | -0.185 |
| AGCCCGTA | -0.195 |
| GAAGTTAC | -0.1 |
| ATCCTTTC | -0.00987 |
| ATGCCTTG | 0.0823 |
| GAATGCTC | 0.0537 |
| AGTGGGGG | -0.124 |
| AGACACCG | 0.0331 |
| GATCCATA | 0.0152 |
| CGGGCAGA | 0.135 |
| CCAGGCCG | 0.16 |
| CACTTATC | -0.0844 |
| ATACCGCC | 0.145 |
| CATTACGG | -0.0848 |
| CTTTTGCA | 0.116 |
| CCAGTTAC | -0.248 |
| TAACCGAA | -0.000545 |
| GGCGTCAC | -0.0307 |

For quick reference, copied from above (block 1):
| Oligonucleotide | RBNS enrichment (R) |
| --- | --- |
| CUCUCCCCCUGCUGUCUGCAGCCCCUCCCCGGGGAGUUGGUGCUUUCUUUUCCUUUUUUUUUUUUUUCCAGGGGGAGGGAGGAGAGGAAGGAGGGGGAUCAGAGCUGUCC | 0.905 |
| AUUUGAAAUGACCCCUCCUCGCUGUGAGAGUCCAGAGUCUCCUGAAGUUUGUCAAUGACUGAAAUGCGAGCAGUGUCACCCAGAGUUGUGGUCAGCCUUACCCCUUCUCC | 0.459 |
| CUUUUUGCUGUACAAAUCUGUUUAAAAAAAAAAAAAAGUAACUCAUUGAAUUAACUUGCAGUGGUGUGUUUGAUUCUUUUUUAGACUGGCUUCAGCAUUGUGCAGUUUAA | 0.654 |
| UAGAUAUGAGUUGAGCACCCUGCCUUUCUUCCUAUCACCCCGCUUCUGCUGAUAGUCCGUGCUACAUUAAGGGACUGAGCAGAGAACACUCAGUCAAGUCCUGAUCCAUU | 0.981 |
| AGCUGUAGGACCUGCAUGGGAAAUGGUCUGUGUGUUUCAGGUUAACAAAUACUGAAAAUCCCAAGGAACCUGGGAGAAUCUGAAAAUGAACUCCAGUCUUCAGCUCGAAG | 7.42 |
| UUAUCAAAUCCUUCUCUCCCAAGCCAUUUAAAAACGUUUUUUAAGUGAAAAGUUUGUAUUCUGCCUCUAAAGUUCCUCAACAAAUACUCGAGUUACACAUAUGCAUAUGU | 2.09 |
